{"data": "Published values from different studies", "target": "Tyrosine-protein kinase Blk (BLK, Homo sapiens, UniProt P51451)", "note": "Lines come from different studies, so protocols differ. Several values in a cell are separate wells, animals, samples, runs or records."}
{"Structure (SMILES)": "CN1CC[C@@H](COc2cnc(C#N)cc2-c2ccn3nc(NC(=O)C4CC4)cc3c2)C1", "test": "enzyme activity, inhibitor", "conditions": "1 µM", "quantity": "inhibition", "result": "33%"}
{"Structure (SMILES)": "CNC1C[S+]2CC[S+]3CC[S+](C1)[Ru-4]321([N]=C=S)[n]2c3ccc(OC)cc3c3c4c(c5cc(F)c[n+]1c5c32)C(=O)NC4=O (stereo not shown)", "test": "KinomeScan", "conditions": "0.1 µM", "scale": "relative to: untreated", "quantity": "remaining binding", "result": "90%"}
{"Structure (SMILES)": "COc1c(OCCCN2CCOCC2)ccc2c1N=C(NC(=O)c1cnc(N)nc1)N1CCN=C21", "test": "kinase activity, inhibitor", "conditions": "1 µM", "scale": "relative to: untreated control", "quantity": "remaining activity", "result": "115%"}
{"Structure (SMILES)": "C=CC(=O)Nc1cccc(-c2cnc3[nH]cc(C(=O)NC(C)(C)C)c3n2)c1", "test": "kinase activity", "conditions": "0.1 µM", "quantity": "inhibition", "result": "30% and 29%"}
{"Structure (SMILES)": "CNC(=O)C[C@H](Cc1ccc(C#N)cc1)NC(=O)c1cc(-c2ccc(CN[C@H](C)c3ccc(C)cc3)o2)ccc1Cl", "test": "enzyme activity, inhibitor", "conditions": "1 µM", "quantity": "activity vs control", "result": "91%"}
{"Structure (SMILES)": "Cc1cccc(O[C@H]2CCC[C@@H](C(C)CNCc3ccncc3)C2)c1 (relative stereo)", "test": "enzyme activity, inhibitor", "conditions": "10 µM", "quantity": "inhibition", "result": "-22%"}
{"Structure (SMILES)": "C=CC(=O)N1CCc2ccc(-n3c(=O)ccc4cnc5ccc(-c6cnn(C)c6)cc5c43)cc21", "test": "KINOMEscan", "conditions": "1 µM", "scale": "relative to: DMSO control", "quantity": "remaining binding", "result": "100%"}
{"Structure (SMILES)": "CCN1CCN(Cc2ccc(NC(=O)c3ccc(C)c(NC(=O)c4cncc(-c5cccs5)c4)c3)cc2C(F)(F)F)CC1", "test": "binding, competition with immobilised ligand", "conditions": "1 µM", "quantity": "remaining binding", "result": "2.3%"}
{"Structure (SMILES)": "COc1c(Cl)cccc1Nc1c(-c2ccncc2C#C[C@@]2(C)CCCN2C(=O)/C=C/CN(C)C)[nH]c2c1C(=O)NCC2", "test": "binding, competition with immobilised ligand", "conditions": "3 µM", "quantity": "remaining binding", "result": "56%"}
{"Structure (SMILES)": "Cc1cc(NC(=O)[C@H](O)c2cc(F)cc(F)c2)ccc1-c1cnc(N)c(C(=O)NC(C)C)c1", "test": "binding, competition with immobilised ligand", "conditions": "0.1 µM", "quantity": "remaining binding", "result": "90%"}
{"Structure (SMILES)": "COCC12C(=O)NC3C4(C(OC)CC1O)C1CC5(O)C(OC)C(O)C(OC(C)=O)(C1C5OC(=O)c1ccccc1)C3(O)C(OC)C24 (stereo not shown)", "test": "kinase activity, inhibitor, ProQinase kinase profiling", "conditions": "25 µM", "scale": "relative to: control", "quantity": "remaining activity", "result": "98% and 92%"}
{"Structure (SMILES)": "COc1cc(Nc2nccc(-c3cnn4nc(OC)ccc34)n2)cc(C(F)(F)F)c1", "test": "binding, competition with immobilised ligand", "conditions": "1 µM", "quantity": "remaining binding", "result": "100%"}
{"Structure (SMILES)": "C=CC(=O)N1CCCC(n2c(=O)c3ncccc3n(Cc3ccc(Oc4ccccc4)cc3)c2=O)C1 (stereo not shown)", "test": "cell-free assay, competition with immobilised ligand", "conditions": "1 µM", "quantity": "remaining binding", "result": "86%"}
{"Structure (SMILES)": "NC(=O)[C@@H](O)C[C@H]1CCc2sc3ncnc(O[C@H]4CC[C@H](N5CCOCC5)CC4)c3c21", "test": "enzyme activity, inhibitor", "conditions": "10 µM", "quantity": "inhibition", "result": "44%"}
{"Structure (SMILES)": "COc1ccc(NC(=O)Nc2ccc3c(c2)C(=O)N(C(C)CO)CC(C)C(CN(C)Cc2ccc4c(c2)OCO4)O3)cc1 (stereo not shown)", "test": "kinase activity, KinaseProfiler", "conditions": "0.03 µM, species human", "scale": "relative to: control", "quantity": "remaining activity", "result": "107%"}
{"Structure (SMILES)": "Nc1ncc(-c2cc(-c3cnn(CC(F)(F)F)c3)ncc2F)nc1C(=O)NC1CNCC(F)C1 (stereo not shown)", "test": "enzyme activity", "conditions": "1 µM", "scale": "relative to: DMSO control", "quantity": "remaining activity", "result": "85.3%"}
{"note": "Excerpt of the above:"}
{"Structure (SMILES)": "Nc1ncc(-c2cc(-c3cnn(CC(F)(F)F)c3)ncc2F)nc1C(=O)NC1CNCC(F)C1 (stereo not shown)", "test": "enzyme activity", "conditions": "1 µM", "scale": "relative to: DMSO control", "quantity": "remaining activity", "result": "85.3%"}
{"Structure (SMILES)": "COCC12C(=O)NC3C4(C(OC)CC1O)C1CC5(O)C(OC)C(O)C(OC(C)=O)(C1C5OC(=O)c1ccccc1)C3(O)C(OC)C24 (stereo not shown)", "test": "kinase activity, inhibitor, ProQinase kinase profiling", "conditions": "25 µM", "scale": "relative to: control", "quantity": "remaining activity", "result": "98% and 92%"}
